Published values from different studies.
Parts stem from different laboratories: compare values within a part only.
Sequence of UniProt Q9NRH2 (whole entry, looked up): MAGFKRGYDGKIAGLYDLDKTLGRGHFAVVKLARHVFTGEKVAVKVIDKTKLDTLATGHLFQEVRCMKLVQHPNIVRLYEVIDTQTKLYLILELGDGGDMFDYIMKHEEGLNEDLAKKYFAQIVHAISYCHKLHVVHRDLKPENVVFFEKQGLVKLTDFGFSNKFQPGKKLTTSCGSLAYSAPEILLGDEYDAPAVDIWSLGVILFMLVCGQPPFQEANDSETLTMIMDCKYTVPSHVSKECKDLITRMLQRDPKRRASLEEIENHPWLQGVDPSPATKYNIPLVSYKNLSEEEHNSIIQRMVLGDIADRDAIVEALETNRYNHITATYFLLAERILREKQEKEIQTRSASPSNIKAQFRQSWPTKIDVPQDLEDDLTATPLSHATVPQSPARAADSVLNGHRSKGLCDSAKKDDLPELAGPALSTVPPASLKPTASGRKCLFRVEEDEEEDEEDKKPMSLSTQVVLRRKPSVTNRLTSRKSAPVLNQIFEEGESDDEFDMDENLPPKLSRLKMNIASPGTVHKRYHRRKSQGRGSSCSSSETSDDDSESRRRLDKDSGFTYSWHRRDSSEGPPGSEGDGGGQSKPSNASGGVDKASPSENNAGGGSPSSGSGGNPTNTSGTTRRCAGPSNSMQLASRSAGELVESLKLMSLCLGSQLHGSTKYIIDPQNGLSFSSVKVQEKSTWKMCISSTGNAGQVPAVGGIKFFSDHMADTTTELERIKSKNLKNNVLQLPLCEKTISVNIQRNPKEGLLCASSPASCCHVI
Sequence of UniProt P10721 (whole entry, unmodified, looked up): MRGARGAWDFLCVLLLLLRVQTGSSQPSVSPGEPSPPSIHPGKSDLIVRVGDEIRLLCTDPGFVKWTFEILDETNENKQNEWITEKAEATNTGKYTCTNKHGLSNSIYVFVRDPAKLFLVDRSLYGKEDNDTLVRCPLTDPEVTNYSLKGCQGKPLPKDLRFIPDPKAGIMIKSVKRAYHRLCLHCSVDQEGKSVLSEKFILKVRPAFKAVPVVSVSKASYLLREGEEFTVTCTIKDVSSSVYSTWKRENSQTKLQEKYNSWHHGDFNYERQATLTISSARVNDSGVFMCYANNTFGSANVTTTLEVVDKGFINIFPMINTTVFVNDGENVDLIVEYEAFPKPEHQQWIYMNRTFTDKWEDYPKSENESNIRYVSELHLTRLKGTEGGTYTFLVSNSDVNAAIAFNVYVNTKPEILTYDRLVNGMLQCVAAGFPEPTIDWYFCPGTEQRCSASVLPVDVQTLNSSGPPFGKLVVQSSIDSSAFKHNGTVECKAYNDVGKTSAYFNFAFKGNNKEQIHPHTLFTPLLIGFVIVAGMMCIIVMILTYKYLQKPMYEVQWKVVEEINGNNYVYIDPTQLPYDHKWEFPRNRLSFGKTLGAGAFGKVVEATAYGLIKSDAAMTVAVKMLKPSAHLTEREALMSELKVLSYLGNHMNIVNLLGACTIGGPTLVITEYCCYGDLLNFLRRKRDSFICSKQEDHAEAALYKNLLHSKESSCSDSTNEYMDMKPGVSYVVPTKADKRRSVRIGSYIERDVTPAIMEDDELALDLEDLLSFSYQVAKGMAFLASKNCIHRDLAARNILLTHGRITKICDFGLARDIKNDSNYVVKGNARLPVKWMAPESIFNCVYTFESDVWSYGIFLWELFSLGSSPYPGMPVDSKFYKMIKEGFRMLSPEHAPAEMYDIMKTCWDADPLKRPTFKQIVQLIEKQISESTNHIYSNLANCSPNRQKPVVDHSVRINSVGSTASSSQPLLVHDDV
Sequence of UniProt Q9UBE8 (whole entry, looked up): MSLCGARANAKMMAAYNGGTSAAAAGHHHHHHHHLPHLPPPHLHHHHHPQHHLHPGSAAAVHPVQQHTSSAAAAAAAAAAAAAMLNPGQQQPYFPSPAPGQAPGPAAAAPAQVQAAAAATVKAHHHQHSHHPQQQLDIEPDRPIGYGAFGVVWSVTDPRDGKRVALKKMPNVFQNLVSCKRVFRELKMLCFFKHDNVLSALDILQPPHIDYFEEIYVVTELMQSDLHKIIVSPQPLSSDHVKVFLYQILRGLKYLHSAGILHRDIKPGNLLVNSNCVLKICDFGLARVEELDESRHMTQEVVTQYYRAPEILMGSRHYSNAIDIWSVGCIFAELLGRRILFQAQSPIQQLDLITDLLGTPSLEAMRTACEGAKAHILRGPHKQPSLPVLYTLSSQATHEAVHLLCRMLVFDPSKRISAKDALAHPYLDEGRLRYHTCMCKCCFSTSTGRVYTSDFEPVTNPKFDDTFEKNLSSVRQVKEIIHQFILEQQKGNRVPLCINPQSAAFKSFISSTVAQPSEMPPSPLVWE
Sequence of UniProt Q05655 (whole entry, looked up): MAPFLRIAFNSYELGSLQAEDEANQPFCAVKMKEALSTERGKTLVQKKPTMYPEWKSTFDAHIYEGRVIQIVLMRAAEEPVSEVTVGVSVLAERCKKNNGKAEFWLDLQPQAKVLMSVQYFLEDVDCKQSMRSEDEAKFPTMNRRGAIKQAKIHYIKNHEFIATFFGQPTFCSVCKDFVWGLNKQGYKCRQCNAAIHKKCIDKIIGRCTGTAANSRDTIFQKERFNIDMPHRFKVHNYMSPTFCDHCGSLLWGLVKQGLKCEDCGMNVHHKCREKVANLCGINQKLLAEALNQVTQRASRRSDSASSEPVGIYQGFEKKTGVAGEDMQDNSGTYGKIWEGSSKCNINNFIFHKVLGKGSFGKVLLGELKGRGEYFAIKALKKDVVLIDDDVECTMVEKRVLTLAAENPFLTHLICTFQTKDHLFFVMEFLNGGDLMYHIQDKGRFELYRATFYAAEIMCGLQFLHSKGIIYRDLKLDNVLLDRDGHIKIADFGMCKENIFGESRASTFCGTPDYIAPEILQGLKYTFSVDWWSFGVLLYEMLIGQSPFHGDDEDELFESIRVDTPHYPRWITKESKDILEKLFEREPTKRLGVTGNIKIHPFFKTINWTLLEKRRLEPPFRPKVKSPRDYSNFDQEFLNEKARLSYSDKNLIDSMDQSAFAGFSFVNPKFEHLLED
Sequence of UniProt P07947 (whole entry, looked up): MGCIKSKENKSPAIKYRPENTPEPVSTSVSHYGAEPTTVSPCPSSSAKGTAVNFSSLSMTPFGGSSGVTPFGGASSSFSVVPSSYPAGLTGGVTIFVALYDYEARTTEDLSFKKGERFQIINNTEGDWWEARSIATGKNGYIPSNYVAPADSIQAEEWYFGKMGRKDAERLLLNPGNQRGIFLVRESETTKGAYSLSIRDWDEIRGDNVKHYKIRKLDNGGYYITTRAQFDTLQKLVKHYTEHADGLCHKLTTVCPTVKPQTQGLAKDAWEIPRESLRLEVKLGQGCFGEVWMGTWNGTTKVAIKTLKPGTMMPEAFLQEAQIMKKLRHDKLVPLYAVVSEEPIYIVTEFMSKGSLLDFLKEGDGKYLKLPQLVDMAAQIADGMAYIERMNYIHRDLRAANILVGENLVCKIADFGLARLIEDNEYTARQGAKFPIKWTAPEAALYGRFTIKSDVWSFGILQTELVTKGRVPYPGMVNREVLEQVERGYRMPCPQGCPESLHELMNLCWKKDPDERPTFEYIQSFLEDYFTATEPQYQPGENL

Series 1 — method: RNA Bind-n-Seq; molecule type: RNA; medium: in vitro; tested at: 1 µM; setting: whole 134-nt RNA, ends assumed; together with: 150 mM KCl; baseline: input library; direction: higher = stronger binding
Target: Ras GTPase-activating protein-binding protein 1, RRM domain (G3BP1, Homo sapiens, UniProt Q13283)
Sequence of UniProt Q13283 (whole entry, looked up): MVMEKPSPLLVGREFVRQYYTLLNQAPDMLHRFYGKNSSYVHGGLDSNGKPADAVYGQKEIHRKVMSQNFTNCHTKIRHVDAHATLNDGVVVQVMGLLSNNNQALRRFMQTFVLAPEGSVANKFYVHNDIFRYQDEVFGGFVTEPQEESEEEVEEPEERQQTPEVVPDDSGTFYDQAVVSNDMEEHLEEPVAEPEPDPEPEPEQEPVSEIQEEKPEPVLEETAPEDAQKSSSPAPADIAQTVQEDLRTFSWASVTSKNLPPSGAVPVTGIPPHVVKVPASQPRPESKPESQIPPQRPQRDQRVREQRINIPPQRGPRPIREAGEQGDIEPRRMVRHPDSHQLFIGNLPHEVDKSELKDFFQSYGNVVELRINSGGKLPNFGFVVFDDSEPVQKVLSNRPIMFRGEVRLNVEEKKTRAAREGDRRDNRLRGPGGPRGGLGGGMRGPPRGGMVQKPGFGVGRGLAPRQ
All sequences stand within: GGGAGUUCUACAGUCCGACGAUC … UGGAAUUCUCGGGUGUCAAGG
`UGGGAGGUGGUUUUUGUUUAUUUUUUUAGCUCAUUUCCAGGGGUGGGAAUUUUUUUUUAAUAUGUGUCAUGAAUAAAGUUGUUUUUGAAA` has a log2 enrichment of 1.46.
`CACAGACAACACGCACCCACACAGACACAGAGCGAAGGGGUUGGGAUGGGGACAGGGUGCACAGCAGGGCGGGGUAGGACCCCAGCCCCU` has a log2 enrichment of -0.0855.
For `GUCCUGUGCUACACAUCGUAUGUACCGAAUCAAACCCCCAAACCCAAAUUUUUUUAAAAAAGUAUUAUGUUACGCCGUUCGGAUCUGCAC`, the log2 enrichment was -0.368.
For `CUCAAGUCCUGUGCUACACAUCGUAUGUACCGAAUCGGGGUGGUGGGGUGGGGAAAGUAUUAUGUUACGCCGUUCGGAUCUGCACUUCCA`, the log2 enrichment was 0.197.
For `CCUGUGCUACACAUCGUAUGUACCGAAUCGGGAAAAAAGGGGAAAAAAGGGAAAAAAGGGGAAAGUAUUAUGUUACGCCGUUCGGAUCUG`, the log2 enrichment was -0.0396.
With `CCUGUGCUACACAUCGUAUGUACCGAAUCGGGAAAAAAGGGAAAAAAGGGGAAAAAAGGGAAAGUAUUAUGUUACGCCGUUCGGAUCUGC` the log2 enrichment was 0.00649.
`CCUCAAGUCCUGUGCUACACAUCGUAUGUACCGAAUCGGAAAAAGGUGGUGGAAAGUAUUAUGUUACGCCGUUCGGAUCUGCACUUCCAG` gave a log2 enrichment of -0.137.
For `UCAAGUCCUGUGCUACACAUCGUAUGUACCGAAUCGGAGGAAAAAAAGGAAAGGAAAGUAUUAUGUUACGCCGUUCGGAUCUGCACUUCC`, the log2 enrichment was -0.0911.

Series 2 — observed: cell-free assay; method: competition with immobilised ligand; tested at: 1 µM
Compound: CNC(=O)Nc1ccc2c(c1)[C@@]1(CC2)OC(=O)N(CC(=O)N(Cc2ccc(F)cc2)[C@@H](C)C(F)(F)F)C1=O
NLK (Homo sapiens, UniProt Q9UBE8) — remaining binding: 77%.
ROCK1 (Homo sapiens, UniProt Q13464) — remaining binding: 81%.
The remaining binding was 75% (PRKCD (Homo sapiens, UniProt Q05655)).
For KIT (Homo sapiens, UniProt P10721, V559D/V654A): remaining binding read 83%.
It gave 100% for remaining binding (SNRK (Homo sapiens, UniProt Q9NRH2)).
For YES1 (Homo sapiens, UniProt P07947): remaining binding read 85%.

Series 3 — observed: enzyme activity; mode: inhibitor; tested at: 0.5 µM; baseline: control
Target: SRSF protein kinase 2 (SRPK2, Homo sapiens, UniProt P78362)
Sequence of UniProt P78362 (whole entry, looked up): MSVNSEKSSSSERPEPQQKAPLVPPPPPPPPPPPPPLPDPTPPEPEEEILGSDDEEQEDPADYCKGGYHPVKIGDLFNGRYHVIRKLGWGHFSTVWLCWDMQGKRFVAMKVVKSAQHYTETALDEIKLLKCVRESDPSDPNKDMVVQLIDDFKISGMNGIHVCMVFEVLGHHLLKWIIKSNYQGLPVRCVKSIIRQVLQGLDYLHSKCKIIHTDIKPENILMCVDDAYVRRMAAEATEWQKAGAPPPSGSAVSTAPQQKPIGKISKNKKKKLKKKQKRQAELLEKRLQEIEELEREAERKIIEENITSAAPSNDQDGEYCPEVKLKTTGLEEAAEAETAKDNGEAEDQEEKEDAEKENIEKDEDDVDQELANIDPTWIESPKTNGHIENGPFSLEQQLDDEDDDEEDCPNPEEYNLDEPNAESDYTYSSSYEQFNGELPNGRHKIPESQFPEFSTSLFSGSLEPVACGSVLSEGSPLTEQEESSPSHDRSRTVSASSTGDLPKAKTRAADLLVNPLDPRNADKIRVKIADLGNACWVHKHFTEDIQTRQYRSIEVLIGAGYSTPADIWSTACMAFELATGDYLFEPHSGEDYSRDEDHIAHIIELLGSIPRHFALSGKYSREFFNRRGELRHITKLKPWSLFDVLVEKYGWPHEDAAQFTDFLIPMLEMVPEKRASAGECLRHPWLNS
With `CC(C)(C)n1nc(Cc2cccc3ccccc23)c2c(N)ncnc21` the remaining activity was 92.4%.
For `Nc1ncnc2c1cnn2-c1ccccc1`, the remaining activity was 104%.
`Oc1ccc(Nc2nc(-c3ccc(Cl)cc3)cs2)cc1` has a remaining activity of 104%.
For `Cc1cncc2cccc(S(=O)(=O)N3CCCN(C(=O)CN)C[C@@H]3C)c12`, the remaining activity was 97.1%.
With `N#CC(=C(N)Sc1ccc(N)cc1)c1ccccc1C(F)(F)F` the remaining activity was 99.5%.
`CC#CC(=O)Nc1cc2c(Nc3ccc(F)c(Cl)c3)ncnc2cn1` gave a remaining activity of 69.2%.
`CC[n+]1c(/C=C/N(C)c2ccccc2)n(-c2ccccc2)c2ccc(-c3nc4ccccc4s3)cc21` has a remaining activity of 105%.
With `CCc1[nH]c(-c2ccc(OC)cc2)nc1-c1ccncc1` the remaining activity was 101%.
`Nc1nccc(-c2c(-c3ccc(F)cc3)ncn2C2CCNCC2)n1` gave a remaining activity of 96.4%.

Series 4 — method: universal PBM; molecule type: double-stranded DNA, one strand shown; medium: in vitro; tested at: not given; direction: higher = stronger binding
Target: Sal-like protein 4, full length isoform B (SALL4, Homo sapiens, UniProt Q9UJQ4-2, residues 1-616)
Setting: 8-mer, flanks averaged, mean of replicates
Target sequence (chain): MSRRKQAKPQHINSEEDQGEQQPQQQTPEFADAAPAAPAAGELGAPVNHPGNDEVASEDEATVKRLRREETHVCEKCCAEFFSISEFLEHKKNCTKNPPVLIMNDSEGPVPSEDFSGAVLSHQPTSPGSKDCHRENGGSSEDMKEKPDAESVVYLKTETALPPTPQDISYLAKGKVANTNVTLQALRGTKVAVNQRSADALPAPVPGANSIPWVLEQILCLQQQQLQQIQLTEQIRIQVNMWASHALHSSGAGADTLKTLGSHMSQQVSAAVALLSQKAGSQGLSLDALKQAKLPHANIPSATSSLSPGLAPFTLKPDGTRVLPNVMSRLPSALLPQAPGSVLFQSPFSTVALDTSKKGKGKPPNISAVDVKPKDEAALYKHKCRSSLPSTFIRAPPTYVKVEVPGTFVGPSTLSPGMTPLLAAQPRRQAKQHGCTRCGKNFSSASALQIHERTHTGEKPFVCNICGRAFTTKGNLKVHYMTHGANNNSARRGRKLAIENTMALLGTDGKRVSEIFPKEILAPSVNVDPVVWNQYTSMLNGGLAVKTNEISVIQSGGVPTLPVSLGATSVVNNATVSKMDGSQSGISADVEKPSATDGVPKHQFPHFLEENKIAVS
The E-score of `CCTCCACC` is reported as -0.198.
For `GTCAAGTA`, the E-score was 0.00746.
With `CCACAACC` the E-score was -0.0318.
With `AGATGGCC` the E-score was -0.262.
With `AAGACTCA` the E-score was -0.0446.
`AAAGGAGT` gave an E-score of 0.0489.
For `AAGCCGGG`, the E-score was -0.316.
With `AATGCGAA` the E-score was 0.164.

Repeated from above (series 2):
ROCK1 (Homo sapiens, UniProt Q13464) — remaining binding: 81%.
The remaining binding was 75% (PRKCD (Homo sapiens, UniProt Q05655)).
For KIT (Homo sapiens, UniProt P10721, V559D/V654A): remaining binding read 83%.
It gave 100% for remaining binding (SNRK (Homo sapiens, UniProt Q9NRH2)).
